Measured values of several laboratories.
Lines come from different studies, so protocols differ. Several values in a cell are separate wells, animals, samples, runs or records. Numbers after ± are the reported error.
FPR2: N-formyl peptide receptor 2 (FPR2, Homo sapiens, UniProt P25090)

By UniProt entry, the sequences of proteins in these tests, tags left out.
UniProt P25090, whole entry: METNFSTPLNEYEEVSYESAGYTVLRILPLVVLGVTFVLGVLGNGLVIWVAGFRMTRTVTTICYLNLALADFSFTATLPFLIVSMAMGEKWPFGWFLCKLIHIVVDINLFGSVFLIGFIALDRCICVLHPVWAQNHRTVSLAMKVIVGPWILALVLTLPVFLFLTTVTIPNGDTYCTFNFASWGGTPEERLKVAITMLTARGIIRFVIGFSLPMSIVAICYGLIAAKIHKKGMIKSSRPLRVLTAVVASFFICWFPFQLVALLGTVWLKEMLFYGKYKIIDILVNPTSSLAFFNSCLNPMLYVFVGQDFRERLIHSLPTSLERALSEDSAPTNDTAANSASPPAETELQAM
UniProt P35462, whole entry: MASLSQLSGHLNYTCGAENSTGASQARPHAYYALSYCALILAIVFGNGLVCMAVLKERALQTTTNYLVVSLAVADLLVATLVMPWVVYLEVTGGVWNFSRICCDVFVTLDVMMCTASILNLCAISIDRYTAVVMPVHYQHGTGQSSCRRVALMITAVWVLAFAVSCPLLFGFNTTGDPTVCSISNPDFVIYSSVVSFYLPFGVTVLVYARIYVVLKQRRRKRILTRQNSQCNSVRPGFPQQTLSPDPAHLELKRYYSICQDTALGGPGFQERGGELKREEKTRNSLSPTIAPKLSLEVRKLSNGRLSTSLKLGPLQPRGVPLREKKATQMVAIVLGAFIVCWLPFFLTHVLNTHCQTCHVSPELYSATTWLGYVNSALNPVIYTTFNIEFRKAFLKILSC
UniProt Q07864, whole entry: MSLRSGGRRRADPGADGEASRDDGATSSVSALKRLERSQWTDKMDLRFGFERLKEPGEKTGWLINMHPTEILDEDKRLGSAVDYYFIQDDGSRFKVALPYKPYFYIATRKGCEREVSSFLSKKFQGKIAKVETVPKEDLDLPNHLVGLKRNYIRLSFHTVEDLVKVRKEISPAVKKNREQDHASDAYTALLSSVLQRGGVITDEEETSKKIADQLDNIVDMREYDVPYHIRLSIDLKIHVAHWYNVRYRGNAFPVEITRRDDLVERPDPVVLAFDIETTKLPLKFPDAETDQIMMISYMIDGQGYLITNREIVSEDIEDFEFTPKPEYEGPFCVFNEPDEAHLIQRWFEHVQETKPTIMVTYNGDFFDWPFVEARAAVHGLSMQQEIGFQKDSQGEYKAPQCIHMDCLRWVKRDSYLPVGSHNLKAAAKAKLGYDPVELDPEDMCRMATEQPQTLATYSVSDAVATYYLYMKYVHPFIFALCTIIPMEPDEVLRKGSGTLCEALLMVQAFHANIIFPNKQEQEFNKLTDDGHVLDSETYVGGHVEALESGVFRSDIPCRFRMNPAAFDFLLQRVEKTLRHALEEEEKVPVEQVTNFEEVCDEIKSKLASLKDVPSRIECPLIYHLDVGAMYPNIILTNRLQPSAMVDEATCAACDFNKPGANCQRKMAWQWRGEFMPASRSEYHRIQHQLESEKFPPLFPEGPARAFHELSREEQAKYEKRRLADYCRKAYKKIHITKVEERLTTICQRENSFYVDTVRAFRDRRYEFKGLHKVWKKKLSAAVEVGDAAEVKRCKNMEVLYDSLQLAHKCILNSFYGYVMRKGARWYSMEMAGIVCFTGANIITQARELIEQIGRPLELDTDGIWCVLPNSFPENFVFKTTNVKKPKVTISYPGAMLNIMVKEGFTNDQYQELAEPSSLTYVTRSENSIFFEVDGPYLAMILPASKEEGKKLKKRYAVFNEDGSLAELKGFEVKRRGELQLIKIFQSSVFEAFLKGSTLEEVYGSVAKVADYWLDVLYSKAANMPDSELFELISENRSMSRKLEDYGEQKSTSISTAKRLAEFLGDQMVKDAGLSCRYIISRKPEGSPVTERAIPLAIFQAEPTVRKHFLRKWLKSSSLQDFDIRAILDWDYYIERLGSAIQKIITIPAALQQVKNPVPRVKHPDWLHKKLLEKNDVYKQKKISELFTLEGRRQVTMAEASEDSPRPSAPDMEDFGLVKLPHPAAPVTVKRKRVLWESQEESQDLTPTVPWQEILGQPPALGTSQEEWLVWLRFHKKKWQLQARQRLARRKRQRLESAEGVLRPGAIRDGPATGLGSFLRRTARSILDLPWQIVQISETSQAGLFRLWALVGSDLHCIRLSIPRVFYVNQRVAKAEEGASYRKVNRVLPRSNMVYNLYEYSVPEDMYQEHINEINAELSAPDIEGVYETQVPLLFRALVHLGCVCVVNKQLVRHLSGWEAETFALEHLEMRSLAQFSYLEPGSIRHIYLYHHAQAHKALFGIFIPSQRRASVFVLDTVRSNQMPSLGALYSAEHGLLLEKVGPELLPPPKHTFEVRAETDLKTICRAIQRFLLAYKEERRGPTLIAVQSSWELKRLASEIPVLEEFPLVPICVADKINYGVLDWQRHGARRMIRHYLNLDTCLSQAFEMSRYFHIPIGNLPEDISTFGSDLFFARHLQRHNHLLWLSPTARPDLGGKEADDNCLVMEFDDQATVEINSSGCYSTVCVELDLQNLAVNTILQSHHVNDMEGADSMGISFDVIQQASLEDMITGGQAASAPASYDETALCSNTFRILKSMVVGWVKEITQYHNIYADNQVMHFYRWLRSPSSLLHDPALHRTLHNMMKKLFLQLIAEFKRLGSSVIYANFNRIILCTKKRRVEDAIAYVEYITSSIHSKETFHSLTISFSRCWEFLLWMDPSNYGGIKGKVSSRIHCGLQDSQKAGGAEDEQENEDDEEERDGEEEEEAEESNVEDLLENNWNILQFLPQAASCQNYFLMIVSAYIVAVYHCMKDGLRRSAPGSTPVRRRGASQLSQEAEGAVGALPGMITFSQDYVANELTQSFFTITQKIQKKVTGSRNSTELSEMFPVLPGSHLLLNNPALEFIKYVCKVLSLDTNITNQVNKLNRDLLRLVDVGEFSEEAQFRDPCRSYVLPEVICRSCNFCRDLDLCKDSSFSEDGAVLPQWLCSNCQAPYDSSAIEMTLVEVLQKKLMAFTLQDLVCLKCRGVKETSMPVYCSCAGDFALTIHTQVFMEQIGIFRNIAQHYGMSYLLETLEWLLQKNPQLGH
UniProt Q16539, whole entry: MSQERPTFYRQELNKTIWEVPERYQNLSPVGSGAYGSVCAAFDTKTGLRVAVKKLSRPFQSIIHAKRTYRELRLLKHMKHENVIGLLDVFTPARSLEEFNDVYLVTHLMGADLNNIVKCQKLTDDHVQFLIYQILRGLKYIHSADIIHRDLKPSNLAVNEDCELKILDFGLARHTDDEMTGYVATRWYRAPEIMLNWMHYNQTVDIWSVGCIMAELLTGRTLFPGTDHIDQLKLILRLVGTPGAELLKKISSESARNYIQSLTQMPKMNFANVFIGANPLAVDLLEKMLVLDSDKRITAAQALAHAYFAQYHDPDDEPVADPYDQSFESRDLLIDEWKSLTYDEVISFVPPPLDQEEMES
UniProt P21917, whole entry: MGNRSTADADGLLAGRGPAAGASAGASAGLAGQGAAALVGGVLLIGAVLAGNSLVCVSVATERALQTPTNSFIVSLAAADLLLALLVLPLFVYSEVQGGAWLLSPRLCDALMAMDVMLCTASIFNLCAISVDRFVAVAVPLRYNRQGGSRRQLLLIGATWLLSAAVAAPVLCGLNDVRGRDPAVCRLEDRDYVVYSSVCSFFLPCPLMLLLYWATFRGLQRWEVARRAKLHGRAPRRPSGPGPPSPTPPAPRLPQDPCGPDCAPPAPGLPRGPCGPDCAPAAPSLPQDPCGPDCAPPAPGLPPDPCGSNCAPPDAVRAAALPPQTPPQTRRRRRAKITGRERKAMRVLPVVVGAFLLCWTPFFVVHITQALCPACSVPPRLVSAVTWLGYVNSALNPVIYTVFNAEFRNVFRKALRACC
UniProt Q9QYN8, whole entry: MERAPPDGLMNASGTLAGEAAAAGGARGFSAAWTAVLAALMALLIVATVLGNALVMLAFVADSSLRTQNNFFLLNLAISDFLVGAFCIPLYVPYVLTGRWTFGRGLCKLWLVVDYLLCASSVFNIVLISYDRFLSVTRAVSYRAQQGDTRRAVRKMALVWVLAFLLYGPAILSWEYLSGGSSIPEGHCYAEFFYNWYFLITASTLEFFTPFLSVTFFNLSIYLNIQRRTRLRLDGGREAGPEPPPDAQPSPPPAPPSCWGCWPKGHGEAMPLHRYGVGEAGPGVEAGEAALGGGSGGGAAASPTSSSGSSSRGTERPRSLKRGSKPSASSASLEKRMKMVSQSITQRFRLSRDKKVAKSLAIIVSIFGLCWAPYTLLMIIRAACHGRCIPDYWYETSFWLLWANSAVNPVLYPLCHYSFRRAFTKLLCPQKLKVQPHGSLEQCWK
UniProt O96013, whole entry: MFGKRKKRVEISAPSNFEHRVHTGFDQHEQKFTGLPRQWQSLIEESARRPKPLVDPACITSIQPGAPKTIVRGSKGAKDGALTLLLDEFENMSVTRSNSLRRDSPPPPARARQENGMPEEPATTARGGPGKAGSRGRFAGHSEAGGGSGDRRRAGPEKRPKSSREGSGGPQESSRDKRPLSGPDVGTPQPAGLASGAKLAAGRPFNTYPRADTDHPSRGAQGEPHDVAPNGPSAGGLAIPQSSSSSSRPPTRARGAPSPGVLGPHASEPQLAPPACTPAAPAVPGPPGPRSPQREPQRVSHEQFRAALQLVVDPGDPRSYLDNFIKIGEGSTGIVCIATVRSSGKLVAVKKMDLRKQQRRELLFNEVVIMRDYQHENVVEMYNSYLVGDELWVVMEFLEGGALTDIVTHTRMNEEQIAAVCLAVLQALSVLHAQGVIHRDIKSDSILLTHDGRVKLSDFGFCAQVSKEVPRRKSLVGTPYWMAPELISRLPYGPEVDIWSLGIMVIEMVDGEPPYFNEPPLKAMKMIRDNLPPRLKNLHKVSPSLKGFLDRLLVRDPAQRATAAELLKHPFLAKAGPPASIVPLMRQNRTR
UniProt P00492, whole entry: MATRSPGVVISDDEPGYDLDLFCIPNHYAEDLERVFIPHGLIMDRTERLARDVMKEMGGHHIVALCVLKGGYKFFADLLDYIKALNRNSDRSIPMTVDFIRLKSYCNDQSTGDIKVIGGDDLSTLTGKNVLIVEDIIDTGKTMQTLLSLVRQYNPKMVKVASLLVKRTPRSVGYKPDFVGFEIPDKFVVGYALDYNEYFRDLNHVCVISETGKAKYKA

Structure (SMILES) = CCn1c2c(c3ccccc31)CCN(CCCCNC(=O)c1ccc3[nH]c4ccccc4c3c1)C2; tested on = DRD3 (Homo sapiens, UniProt P35462); assay = binding; endpoint = Ki; result = 36.7 ± 1.5 nM
Structure (SMILES) = CCc1cc2c(=O)c(-c3nc4ccccc4n3C)c(C)oc2cc1OC(C)=O; tested on = FPR2; assay = binding; conditions = single representative run; endpoint = Ki; result = 4400 nM
Structure (SMILES) = C=C(C)C(=O)Nc1ccc(-c2c(-c3ccc(Oc4nccc(C)n4)c(F)c3)c3c(N)ncnc3n2C)cc1; tested on = MFM-223; assay = cell growth, CellTiter-Glo; conditions = 120 h, unit not given; scale = baseline: untreated growth rate, higher = stronger inhibition; endpoint = area over GR curve; result = 0.834
Structure (SMILES) = N#Cc1c(-c2ccc(Cl)cc2Cl)n(-c2nc(-c3ccc(Cl)cc3)c3c(NC(=O)c4ccccc4)nnc-3[nH]2)[nH]c1=O; tested on = UO-31; assay = SRB; conditions = 10 µM; endpoint = cell growth; result = 24.5%
Structure (SMILES) = CC(C)(CC(=O)Nc1nnc(S(N)(=O)=O)s1)C1CCCCC1; tested on = Enterococcus faecium gamma-carbonic anhydrase; assay = CO2 hydration, inhibitor, stopped-flow kinetics; endpoint = Ki; result = 283 nM
Structure (SMILES) = CC/C=C\C/C=C\CCC/C=C/C=C/C=C\CCCC(=O)O; tested on = POLE (Homo sapiens, UniProt Q07864); assay = enzyme activity, inhibitor; endpoint = IC50; result = 27.4 ± 1.6 µM
Structure (SMILES) = NS(=O)(=O)c1nnc(NC(=O)CC2C3CC4CC(C3)CC2C4)s1 (stereo not drawn); tested on = Enterococcus faecium gamma-carbonic anhydrase; assay = CO2 hydration, inhibitor, stopped-flow kinetics; endpoint = Ki; result = 182 nM
Structure (SMILES) = CC(C)C[C@H](NC(=O)[C@H](C)NC(=O)[C@H](CCCNC(=N)N)NC(=O)[C@H](CCCNC(=N)N)NC(=O)[C@H](CCCNC(=N)N)NC(=O)[C@H](C)NC(=O)[C@H](CC(C)C)NC(=O)[C@H](CCCNC(=N)N)NC(=O)[C@H](CO)NC(=O)[C@H](CCCCN)NC(=O)[C@H](CO)NC(=O)Cn1cc(COC(=O)[C@]2(C)C=C(C(=O)OC(C)(C)C)C(=O)CC2)nn1)C(=O)O; tested on = MAPK14 (Homo sapiens, UniProt Q16539); assay = enzyme activity, inhibitor, D-SENSOR kinase; conditions = 0.03048 µM, unit not given; scale = baseline: untreated; endpoint = remaining activity; result = 1.04 and 0.874 and 0.915
Structure (SMILES) = CCOC(=O)c1c(-c2ccc(Cl)cc2Cl)n(-c2nc(-c3ccc(Cl)cc3)c3c(NC(=O)c4ccccc4)nnc-3[nH]2)[nH]c1=O; tested on = UO-31; assay = SRB; conditions = 10 µM; endpoint = cell growth; result = 17.3%
Structure (SMILES) = COc1ccccc1N1CCN(CCCCc2cn(-c3cccc4ncccc34)nn2)CC1; tested on = DRD4 (Homo sapiens, UniProt P21917); assay = binding; test system = HEK293 membranes; conditions = together with: 0.4 nM [3H]N-methylspiperone; endpoint = Ki; result = > 1000 nM
Structure (SMILES) = COc1ccc(-c2cn3cccnc3n2)cc1NC(=O)C(C)C; tested on = FPR2; assay = binding; endpoint = Ki; result = 270 ± 51 nM
Structure (SMILES) = c1cnc2c(N3CCN(CCCN4CCN(c5cccc6sccc56)CC4)CC3)cccc2c1; tested on = Hrh3 (Rattus norvegicus, UniProt Q9QYN8); assay = binding; test system = rat cerebral cortex membranes; conditions = together with: [3H]N-alpha-methylhistamine; endpoint = Ki; result = 753 ± 98.5 nM
Structure (SMILES) = Nc1nccc(-n2cc(C(=O)N3CCCC3)c3ccc(C#CC4(O)CCCCC4)cc32)n1; tested on = PAK4 (Homo sapiens, UniProt O96013); assay = inhibitor, HTRF; endpoint = Ki; result = 455 nM
Structure (SMILES) = NS(=O)(=O)c1nnc(NC(=O)C2C3CC4CC(C3)CC2C4)s1 (stereo not drawn); tested on = Enterococcus faecium gamma-carbonic anhydrase; assay = CO2 hydration, inhibitor, stopped-flow kinetics; endpoint = Ki; result = 288 nM
Structure (SMILES) = O=c1[nH]cnc2c(CNCCCP(=O)(O)O)c[nH]c12; tested on = Hypoxanthine-guanine phosphoribosyltransferase (Homo sapiens, UniProt P00492); assay = enzyme activity, inhibitor, spectrophotometric; endpoint = Ki; result = 4940 nM

Excerpt of the above:
Structure (SMILES) = CCn1c2c(c3ccccc31)CCN(CCCCNC(=O)c1ccc3[nH]c4ccccc4c3c1)C2; tested on = DRD3 (Homo sapiens, UniProt P35462); assay = binding; endpoint = Ki; result = 36.7 ± 1.5 nM
